Experimental data gathered from unrelated publications.
Parts stem from different laboratories: compare values within a part only.

Study 1
Target: RNA binding protein fox-1 homolog 2, RRM domain, GST-SBP tag (RBFOX2, Homo sapiens, UniProt O43251-10, residues 100-194)
Technique: RNA Bind-n-Seq
Form: RNA
Medium: in vitro
Tested at: 365 nM
Notes: natural RNA segment, single round, ends assumed
Baseline: no-protein control
Direction: higher = stronger binding
Construct (chain): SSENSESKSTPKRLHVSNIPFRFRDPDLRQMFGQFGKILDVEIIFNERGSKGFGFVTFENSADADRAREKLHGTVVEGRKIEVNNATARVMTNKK
`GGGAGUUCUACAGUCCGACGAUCAAAAAUCCACUCAUAUAAAAGGUGAGCUCAGCUCACUGGUCCAUUUCUCAGUGGCUUCUCCAUCCUCAUUUGCAAACCUCAGAGGGAUAAGGCAGUUGAACCUGAUGAGCUGGAAUUCUCGGGUGCCAA`: “RBNS enrichment (R)” 0.44.
`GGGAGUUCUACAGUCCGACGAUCAGUAGUACACACCUGUAGUCCAAGCUACUUGGGAGGCUGAAGUGGGAGGAUCAUUUGUGCCCAGGUUGAGGCUAUAGUGAGCCAUGAUCAUACCACUGCACUCCAGCCUGUGGAAUUCUCGGGUGCCAA`: “RBNS enrichment (R)” 0.419.
`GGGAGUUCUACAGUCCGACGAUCUCACCGCUGCCUGACCACCCAUGAACAAGACUCUUGUCCAGGAUUUCCCUGUGCUUGGCUCUCCAAAUUUCUGCCCAUCCAUCCUGCCCCUCACACAGUAGUACUAGUUGUGGAAUUCUCGGGUGCCAA`: “RBNS enrichment (R)” 0.621.
For `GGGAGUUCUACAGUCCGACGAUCGACUCGCUUCCCAUCCUGGCAUAGAGUGGGGGAUGGCUGGAGGGUGUCUAUAGGUACAGCCCGCUCUGGCUGCUGCCAGGUGGGCCCCUGCCAGGGGUCCUCACCCCUGUUGGAAUUCUCGGGUGCCAA`, “RBNS enrichment (R)” read 0.334.
For `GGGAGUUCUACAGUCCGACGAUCAACCCCUUUAUUGCUGUCUGAGAAAGUGAAAGAUUGUGUAUUUCUAUUAAAACAUUUACAAUCAAAAUUCUAAUGACUGUGCUUAAAGAUAAUUUAGUCUAAUGGUUCUCUGGAAUUCUCGGGUGCCAA`, “RBNS enrichment (R)” read 0.412.
Under “RBNS enrichment (R)”, `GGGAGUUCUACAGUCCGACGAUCAUCAUUGCCAUCGUGUGCUUGUUUCAUCCAGUGUUAUGCACUUUCCACAGUUGGACAUGGUGUUAGUAUAGCCAGACGGGUUUCAUUAUUAUUUCUCUUUGCUUUCUCAAUGGAAUUCUCGGGUGCCAA` is recorded as 0.825.
For `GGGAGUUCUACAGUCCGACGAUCCAUUUUUACUAAUCCUAAUACUCUGCUCUAGCUUGCUUCAGAACUCCCGUGGCUUUGCUUGAUCUGUUGUUGCUUCUCCUCAUCAAGACUUUGCAUCAUGUUAGCCAGCCUGGAAUUCUCGGGUGCCAA`, “RBNS enrichment (R)” read 0.766.
For `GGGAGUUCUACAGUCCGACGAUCCACCAAGUUCAGCCCAAAAUGAUAUUCUUUUCAGUCCUGUGGGGGAAGGACCGGCUUUAUCUCAUGAUGCCUUUCUGAGACUUGACCGUUAUGAGCUGAACAUAAAAAGUUGGAAUUCUCGGGUGCCAA`, “RBNS enrichment (R)” read 0.775.
`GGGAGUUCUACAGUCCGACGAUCUGCCUAAUUUCUGUGAUUUCCAACCAACAUGAAAUGACUAUAAAUGGUUUUUUAAUGAAAAAAGAAAUCACUUUUAUUGGCUUGGUUUUCUAGCAUUGCUGGUGCAGUGGUGGAAUUCUCGGGUGCCAA` — result for “RBNS enrichment (R)”: 0.291.
For `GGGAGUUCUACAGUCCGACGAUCCCUUAUGUCAUCAGAUUCCUCCUAGGGGAGAGUUUUUGUUUUAAUUACAAAAUUAAAUUCUACAUUGUUACCAAGAAAUUUGUGGUGAUAAAAAUGGAAAAAUAAAAAUUUGGAAUUCUCGGGUGCCAA`, “RBNS enrichment (R)” read 0.647.
`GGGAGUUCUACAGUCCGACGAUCUGCUCUUGCCGCCAGCAUUGCACCAGCAGUCCAGAAUUCCUGCCUGACAACCCGUGUUUCCUUUAUUAAAAGUGAUUAGUACAACUGCUAGUUAUUUUCAACAAAUAAAGUGGAAUUCUCGGGUGCCAA` — result for “RBNS enrichment (R)”: 0.225.
Under “RBNS enrichment (R)”, `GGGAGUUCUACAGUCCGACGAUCAGGGAGUACCUUUUUUUCUAGUUGAGAAUUAAUAAUGGUCCAUCUCUUUUGAUCAUAUCAAGCUAGGAUAGAAGGGGGGCUAUUUUAAAUGUCAAGGUCAGCAGUGUUACUGGAAUUCUCGGGUGCCAA` is recorded as 0.859.

Study 2
Target: Prothrombin, mature alpha-thrombin (F2, Homo sapiens, UniProt P00734)
Technique: aptamer microarray, sandwich
Form: DNA with 2'F-ANA
Medium: in vitro
Tested at: 200 nM
Notes: whole 15-mer aptamer, many near background
Together with: Cy3 exosite-II aptamer, 400 nM
Direction: higher = stronger binding
Sequence: GGTTGGTGTGGTTGG
`2'F-ANA at 3 6 7 8 11`: “mean fluorescence intensity” 1060 a.u.
For `2'F-ANA at 1 3 8 11 12 13 14 15`, “mean fluorescence intensity” read 119 a.u.
`2'F-ANA at 1 2 3 4 7 8 9 13 15`: “mean fluorescence intensity” 134 a.u.
`2'F-ANA at 1 2 3 8 11`: “mean fluorescence intensity” 232 a.u.
Under “mean fluorescence intensity”, `2'F-ANA at 2 7 9 10 14` is recorded as 96.6 a.u.
`2'F-ANA at 1 3 5 7 10 12 13 15`: “mean fluorescence intensity” 50.5 a.u.
`2'F-ANA at 3 7 9 10 11 12 15` — result for “mean fluorescence intensity”: 574 a.u.
`2'F-ANA at 2 4 5 6 8 9 12 13 14 15` — result for “mean fluorescence intensity”: 49.3 a.u.
For `2'F-ANA at 2 3 4 6 7 8 9 10 11 15`, “mean fluorescence intensity” read 190 a.u.
`2'F-ANA at 1 2 3 4 5 7 9 10 13` — result for “mean fluorescence intensity”: 48.2 a.u.
For `2'F-ANA at 4 5 11 15`, “mean fluorescence intensity” read 93.4 a.u.
`2'F-ANA at 2 4 5 6 7 8 9 10 11 13`: “mean fluorescence intensity” 48.6 a.u.
`2'F-ANA at 1 7 8 11 12 14`: “mean fluorescence intensity” 74.4 a.u.
For `2'F-ANA at 1 3 9 10 11 12 15`, “mean fluorescence intensity” read 98.3 a.u.
`2'F-ANA at 1 2 5 12 14 15`: “mean fluorescence intensity” 45.1 a.u.
`2'F-ANA at 3 4 6 7 9 14`: “mean fluorescence intensity” 244 a.u.
`2'F-ANA at 2 3 8 9 12 15` — result for “mean fluorescence intensity”: 1020 a.u.
For `2'F-ANA at 2 7 9 10 15`, “mean fluorescence intensity” read 161 a.u.

Study 3
Target: Ras GTPase-activating protein-binding protein 1, C-terminal RGG region (G3BP1, Homo sapiens, UniProt Q13283)
UniProt Q13283, sequence (whole entry, looked up): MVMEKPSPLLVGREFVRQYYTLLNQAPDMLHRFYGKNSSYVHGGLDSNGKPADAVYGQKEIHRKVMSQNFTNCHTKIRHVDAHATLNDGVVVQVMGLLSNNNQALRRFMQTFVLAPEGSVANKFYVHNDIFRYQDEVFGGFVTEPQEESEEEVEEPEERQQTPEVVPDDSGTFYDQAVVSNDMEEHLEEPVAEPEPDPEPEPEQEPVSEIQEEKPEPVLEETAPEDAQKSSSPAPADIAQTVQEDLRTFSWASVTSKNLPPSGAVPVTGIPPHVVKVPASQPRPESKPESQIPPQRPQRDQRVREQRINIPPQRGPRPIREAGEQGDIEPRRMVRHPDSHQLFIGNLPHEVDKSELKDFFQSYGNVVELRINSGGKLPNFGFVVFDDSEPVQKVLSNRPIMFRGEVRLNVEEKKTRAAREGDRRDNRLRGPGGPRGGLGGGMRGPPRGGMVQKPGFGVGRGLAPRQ
Technique: RNA Bind-n-Seq
Form: RNA
Medium: in vitro
Tested at: 1 µM
Notes: whole 134-nt RNA, ends assumed
Together with: 150 mM KCl
Baseline: input library
Direction: higher = stronger binding
`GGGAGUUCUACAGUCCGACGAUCGUCCUGUGCUACACAUCGUAUGUACCGAAUCGGGGAAAAAGGGGUGGGGUUUUUGGGGAAAGUAUUAUGUUACGCCGUUCGGAUCUGCACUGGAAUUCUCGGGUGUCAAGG` gave a log2 enrichment of 1.3.
With `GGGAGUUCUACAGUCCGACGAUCAGUCCUGUGCUACACAUCGUAUGUACCGAAUCGGGAAAAGGGGAAAAGGGAAAAGGGAAAGUAUUAUGUUACGCCGUUCGGAUCUGCACUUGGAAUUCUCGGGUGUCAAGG` the log2 enrichment was 1.05.
`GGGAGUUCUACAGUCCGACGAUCCUGUGCUACACAUCGUAUGUACCGAAUCGGGGCCCCCCCGGGGCCCCCCCGGCCCCCCCGGGAAAGUAUUAUGUUACGCCGUUCGGAUCUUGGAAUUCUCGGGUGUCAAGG` gave a log2 enrichment of -2.05.
For `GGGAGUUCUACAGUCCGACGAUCCCUGUGCUACACAUCGUAUGUACCGAAUCGGGGUUUUUGGGGUUUGGGGUUUUUUUGGGGAAAGUAUUAUGUUACGCCGUUCGGAUCUGCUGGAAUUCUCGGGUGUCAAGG`, the log2 enrichment was 1.73.
For `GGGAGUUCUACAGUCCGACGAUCUGGUCCUGGUGGCAUGCGGGGAGGAAGAGGUGGCCUCAUGGAUCGUGGUGGUCCCGGUGGAAUGUUCAGAGGUGGCCGUGGUGGAGACAGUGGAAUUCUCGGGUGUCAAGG`, the log2 enrichment was 1.89.
`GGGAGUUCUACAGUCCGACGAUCCACAGACAACACGCACCCACACAGACACAGAGGGGAGGGGUUGGGAUGGGGACAGGGUGCACAGCAGGGCGGGGUAGGACCCCAGCCCCUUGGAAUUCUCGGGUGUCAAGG` has a log2 enrichment of -0.076.
The log2 enrichment of `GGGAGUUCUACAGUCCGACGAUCUGGGAGGUGGAUUUAGUUUAUUUUUUUAGCUCAUUUCCAGGGGUGGGAAUUUUUUUUUAAUAUGUGUCAUGAAUAAAGUUGUUUUUGAAAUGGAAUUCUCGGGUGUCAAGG` is reported as 2.97.
The log2 enrichment of `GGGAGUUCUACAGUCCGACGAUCCUGUGCUACACAUCGUAUGUACCGAAUCGGAAAAAAAGGGAAAAAAAGGGAAAAAAAGGGGAAAGUAUUAUGUUACGCCGUUCGGAUCUGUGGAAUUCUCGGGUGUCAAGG` is reported as -1.51.
`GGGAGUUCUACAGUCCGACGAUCUCCUCAAGUCCUGUGCUACACAUCGUAUGUACCGAAUCGGCGGCGGCGGGGAAAGUAUUAUGUUACGCCGUUCGGAUCUGCACUUCCAGCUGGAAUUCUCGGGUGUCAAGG` gave a log2 enrichment of -0.959.
`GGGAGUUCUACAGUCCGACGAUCUCAAGUCCUGUGCUACACAUCGUAUGUACCGAAUCGGUUUUUGGUGGAAAAAGGAAAGUAUUAUGUUACGCCGUUCGGAUCUGCACUUCCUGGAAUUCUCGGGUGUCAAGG` gave a log2 enrichment of -1.15.
The log2 enrichment of `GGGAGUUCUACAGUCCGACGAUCUAACUUUAGAGGAGGAUCUGAUGGAUAUGGCAGUGGACGUGGAUUUGGGGAUGGCUAUAAUGGGUAUGGAGUAGGACCUGGAGGUGGCAAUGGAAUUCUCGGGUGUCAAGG` is reported as -0.409.
`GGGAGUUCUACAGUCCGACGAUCACCAUGCAGGUGGGCAUCUUUGGGAAGUGGGGCAAGGGGGGGAUAGGGAGGGGGGUAACACUUUGGGAACAGGUGGUCACAGGUCGUUUCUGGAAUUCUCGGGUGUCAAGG` has a log2 enrichment of 2.16.
`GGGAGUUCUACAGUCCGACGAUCGCAGGAAGUAAAAACAAAUGGAAAUGCUUCGGAUAGUGGCAGGGGUGGGGGUUGCUAAGGAAAGGGUGGGAUGGGAGUGGGUAAAGAGUAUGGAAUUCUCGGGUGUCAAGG` gave a log2 enrichment of 1.91.
The log2 enrichment of `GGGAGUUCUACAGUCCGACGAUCUGGGAGGUGGAUUUUGUUUAUUUUUUUAGCUGAUUUCCAGGGGUGGGAAUUUUUUUUUAAUAUGUGUCAUGAAUAAAGUUGUUUUUGAAAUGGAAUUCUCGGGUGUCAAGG` is reported as 3.49.

Study 4
Target: Histone acetyltransferase KAT6A, both winged helices, GST fusion (KAT6A, Homo sapiens, UniProt Q92794, residues 1-181)
Technique: protein binding microarray
Form: double-stranded DNA, one strand shown
Medium: in vitro
Tested at: not given
Notes: 8-mer, flanks averaged, mean of 2 arrays, mostly near background
Baseline: not given
Direction: higher = stronger binding
Construct (chain): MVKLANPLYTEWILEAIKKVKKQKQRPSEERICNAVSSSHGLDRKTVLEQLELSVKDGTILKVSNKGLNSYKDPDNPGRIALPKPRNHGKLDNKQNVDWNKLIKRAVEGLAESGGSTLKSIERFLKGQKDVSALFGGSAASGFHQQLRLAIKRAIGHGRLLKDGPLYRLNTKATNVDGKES
For `CGGGGGCA`, the E-score was 0.0233.
`CTGGTGGA` has an E-score of -0.0987.
The E-score of `AGTGGGAA` is reported as -0.15.
With `ACCTTTCG` the E-score was -0.0227.
The E-score of `CGACCCCC` is reported as 0.0452.
`TATTTCGA` gave an E-score of 0.0916.
The E-score of `GACTTAAA` is reported as -0.0226.
`ACTCGCGA` has an E-score of 0.182.
With `AGACAGCG` the E-score was 0.217.
`CCGTCATC` gave an E-score of 0.172.
`AATCCGAT` gave an E-score of 0.155.
`TCGGACAA` has an E-score of 0.0837.
For `CGAGTGCG`, the E-score was 0.189.
`TGTCCTAA` gave an E-score of -0.133.
The E-score of `ACGCGGTG` is reported as 0.249.
With `CGATCCTA` the E-score was -0.0635.
With `GCCAAACA` the E-score was -0.0249.
With `ACCCGATA` the E-score was 0.0644.
`AGGACAGC` has an E-score of -0.0297.
`ATAGGAGC` has an E-score of -0.028.
The E-score of `AGATGAGA` is reported as -0.176.
With `CTCTCCCA` the E-score was -0.204.
With `ACCATACA` the E-score was -0.059.
For `CAGGGCTC`, the E-score was -0.169.
The E-score of `ACGCATGA` is reported as 0.116.

For quick reference, copied from above (study 2):
`2'F-ANA at 1 7 8 11 12 14`: “mean fluorescence intensity” 74.4 a.u.
For `2'F-ANA at 1 3 9 10 11 12 15`, “mean fluorescence intensity” read 98.3 a.u.
`2'F-ANA at 1 2 5 12 14 15`: “mean fluorescence intensity” 45.1 a.u.
`2'F-ANA at 3 4 6 7 9 14`: “mean fluorescence intensity” 244 a.u.
`2'F-ANA at 2 3 8 9 12 15` — result for “mean fluorescence intensity”: 1020 a.u.
For `2'F-ANA at 2 7 9 10 15`, “mean fluorescence intensity” read 161 a.u.
